Published values collected from several papers.
A part holds a random share of what one study measured. Positions count from the first letter of the parent shown.

Sample 1
Target: Interferon regulatory factor 7, full length, phosphomimetic (IRF7, Homo sapiens, UniProt Q92985, residues 1-503, S101K/S471D/S472D/S475D/S476D/S477D/S483D/S484D/S487D)
UniProt Q92985, sequence (whole entry, unmodified, looked up): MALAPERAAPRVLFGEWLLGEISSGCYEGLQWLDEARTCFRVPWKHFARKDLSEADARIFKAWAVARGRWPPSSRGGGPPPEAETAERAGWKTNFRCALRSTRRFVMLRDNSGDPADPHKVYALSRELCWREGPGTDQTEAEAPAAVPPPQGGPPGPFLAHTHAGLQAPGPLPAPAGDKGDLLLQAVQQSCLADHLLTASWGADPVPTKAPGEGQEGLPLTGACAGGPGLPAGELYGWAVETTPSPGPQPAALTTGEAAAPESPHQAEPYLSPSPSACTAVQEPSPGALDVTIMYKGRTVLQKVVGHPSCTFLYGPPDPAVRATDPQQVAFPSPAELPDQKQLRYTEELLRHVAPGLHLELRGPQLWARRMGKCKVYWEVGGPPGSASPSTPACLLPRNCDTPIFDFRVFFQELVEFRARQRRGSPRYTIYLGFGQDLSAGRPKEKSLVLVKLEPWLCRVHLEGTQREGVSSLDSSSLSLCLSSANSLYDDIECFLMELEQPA
Method: protein-binding microarray
Molecule type: double-stranded DNA, one strand shown
Medium: in vitro
Tested at: 250 nM
Notes: 60-bp whole probe
Together with: salmon DNA 0.4 mg/ml
Reference: random background probes
Direction: higher = stronger binding
Quantity: log fluorescence
All sequences stand within: GCCTAGCAC … GTCTTGATTCGCTTGACGCTGCTG
Sequence = CCCCCAGGATTCAATTACCAGTGCTAG; value = -0.345 z-score
Sequence = TTAGGTCTCGATATCGGTTAGTGCTAG; value = 3.45 z-score
Sequence = TTAAGCCCACTATCTAGCCCGTGCTAG; value = 0.0386 z-score
Sequence = TTAGGTATCCTTTTCCTGTAGTGCTAG; value = 1.4 z-score
Sequence = TCATTTTTCAAGAAACAGACTGTGCTA; value = 1.23 z-score
Sequence = GACGGTATCGGTCTCGAGACGTGCTAG; value = 0.849 z-score
Sequence = GACGATCTCAGTATCGAGCCGTGCTAG; value = -0.0561 z-score
Sequence = GACGGTATCGGGTTTCGGTACGTGCTA; value = 4.55 z-score
Sequence = GAGCTCCTCCTTCTCTAACCGTGCTAG; value = -0.113 z-score

Sample 2
Target: CCNA1, cyclin fold, Cln2 fusion (human)
Method: yeast growth competition, sequencing
Medium: yeast
Notes: weak parent motif
Reference: not given
Direction: higher = stronger binding
Quantity: normalised enrichment score
Parent: E2F1 docking peptide (human); PPVKRRLDLETDH; partner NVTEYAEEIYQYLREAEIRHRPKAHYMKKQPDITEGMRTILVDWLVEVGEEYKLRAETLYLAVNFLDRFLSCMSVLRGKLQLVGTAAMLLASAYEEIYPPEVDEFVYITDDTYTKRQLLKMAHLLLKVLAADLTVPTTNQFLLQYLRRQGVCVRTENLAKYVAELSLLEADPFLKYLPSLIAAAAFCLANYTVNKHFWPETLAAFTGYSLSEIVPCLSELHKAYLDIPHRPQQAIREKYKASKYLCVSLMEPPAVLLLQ
Variant = P1I; value = 0.408
Variant = E10M; value = 0.441
Variant = D12S; value = 0.33
Variant = V3H; value = 0.119
Variant = D12R; value = 0.376
Variant = P1K; value = 0.624
Variant = K4F; value = 0.286
Variant = T11M; value = 0.0931
Variant = D12Y; value = 0.79
Variant = T11W; value = 0.658
Variant = D12A; value = 0.744

Sample 3
Target: RING finger protein unkempt homolog, zinc fingers 1-6, SBP tag (UNK, Homo sapiens, UniProt Q9C0B0, residues 30-357)
UniProt Q9C0B0, sequence (30-357, looked up): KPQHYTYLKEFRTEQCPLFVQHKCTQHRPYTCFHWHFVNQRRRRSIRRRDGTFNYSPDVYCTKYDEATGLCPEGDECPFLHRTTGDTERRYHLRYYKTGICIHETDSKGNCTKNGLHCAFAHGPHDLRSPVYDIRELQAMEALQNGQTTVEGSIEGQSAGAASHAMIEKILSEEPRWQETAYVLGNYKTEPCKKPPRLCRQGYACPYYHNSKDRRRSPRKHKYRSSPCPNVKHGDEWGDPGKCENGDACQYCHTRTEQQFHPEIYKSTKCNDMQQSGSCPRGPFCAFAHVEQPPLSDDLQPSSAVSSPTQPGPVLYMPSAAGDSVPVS
Method: RNA Bind-n-Seq
Molecule type: RNA
Medium: in vitro
Tested at: 100 nM
Notes: RNA with constant flanks, vertebrate orthologous sites, ends assumed
Reference: input RNA pool
Direction: higher = stronger binding
Quantity: bound/input enrichment
All sequences stand within: GGGAGUUCUACAGUCCGACGAUC … CAACAGAGGAUUGAGCAUCA
Sequence = AGCAUCUGGUGAUAUUUGGCCUGGUCUUUCAGCAUAUGAUAAUAGCCCAAGAUCACCUCAUAGCCCUUCUCCUAUUGCUACACCACCUAGUCAAAGUUCAUCUUGUUCAGAUGCUCCCAU; value = 0.963 ratio
Sequence = CAGUUUGUAUGUACAUUAUUCACAUUCCUCUCUGAUGUGUUUGGGGGAAAAAAGACAUUUUAGCCUUUUUUAAGGUUAUUGAUUUAAUUUCAUGUUAUUUGGUUGCAUGAAGUUGCCCUU; value = 0.45 ratio
Sequence = UUUUAUUGAUCAGGUCUGUAAAUGUGUACUAAAACAAUCAGAGUUUAUUUAUAAAUAGGAUAGUUUAUUUAAAGAGGUGUUUUCCUCCCUGAUAUCAUGGUAUGCGUAAUUCUUUGCUAC; value = 0.372 ratio
Sequence = UUCAGGCACAACUGACUGGUUCACAGCAUUCCUUACAUAGUUAUCUAUCAAAUGCAAGUGUAGGUAAUUUUCAGGAAACAACCAGGCAGUCACCUUUGUCCUGUAGUUCAAUUGGAGAGU; value = 0.983 ratio
Sequence = UCCUUAACUUGUUCUAGCUUGUGAUCCUUUAAAGUUGGAUCAUACAUUAGUGCUAGAUACUAGAAAUUUCACUUCUCUGUUUCCAGUGAUCAGAGAAACAGACAUUAAAAACAGGAAUAU; value = 0.615 ratio
Sequence = UCAUUGUGCUGCAAAAAUCAUCCUCUUUCUAAAUUAGCCACAGUGAUAACUAGUCUGCACUAGUAGAAUCAUUUACCUUUUAAACUAUCUGCUUUGUCUGAUACCUGAAACACAUCAAAA; value = 0.53 ratio

Other studies, line by line
Substance = PhoQ, residues 284 288 289 292 302 303 SLKLQV; target = PhoP, residues 12 14 15 18 19 NHTVL (Escherichia coli, UniProt P23836); test = Sort-seq, measured: YFP reporter; system = E. coli; conditions = PhoQ-PhoP variant library, together with: 10 µM Mg2+; how to read = reference: high Mg2+ state, higher = stronger signaling; quantity = fold induction; value = 10.8

Repeated from above (sample 2):
Variant = T11W; value = 0.658
Variant = D12A; value = 0.744
Variant = P1I; value = 0.408
Variant = K4F; value = 0.286
